Measured values gathered from unrelated publications.
A part holds a random share of what one study measured.

Sample 1
Target: Histone acetyltransferase KAT6A, both winged helices, GST fusion (KAT6A, Homo sapiens, UniProt Q92794, residues 1-181)
Method: protein binding microarray
Molecule type: double-stranded DNA, one strand shown
Matrix: in vitro
Concentration: not given
Setting: 8-mer, flanks averaged, mean of 2 arrays, mostly near background
Reference: not given
Direction: higher = stronger binding
Target sequence (chain): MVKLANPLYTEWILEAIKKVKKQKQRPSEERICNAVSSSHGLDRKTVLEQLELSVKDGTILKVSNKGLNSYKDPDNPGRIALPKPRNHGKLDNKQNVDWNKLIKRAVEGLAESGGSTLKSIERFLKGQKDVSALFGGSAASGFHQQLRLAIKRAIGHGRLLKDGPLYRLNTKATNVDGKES
Sequence | E-score
GTTAATTA | 0.0398
TAACAAGA | -0.168
GAGGAAAA | -0.115
CTTCCGGA | 0.0921
GATCTATA | -0.0074
AAGGGCAG | -0.031
AAGGAGAG | -0.129
CTGTGTTC | -0.145
AGCCCAGG | -0.172
CGACCGAC | 0.127
ACTTGTAA | -0.0457
AAGGACAT | 0.0331
CCGTTCAC | 0.141
TAGACCTA | -0.0342
GCAGCCCA | -0.0793
AGTTCGGA | -0.0575

Sample 2
Target: RING finger protein unkempt homolog, zinc fingers 1-6, GST-SBP tag (UNK, Homo sapiens, UniProt Q9C0B0, residues 30-357)
Method: RNA Bind-n-Seq
Molecule type: RNA
Matrix: in vitro
Concentration: not given
Setting: RNA with constant flanks, human-mouse chimeric sites, ends assumed
Reference: input RNA pool
Direction: higher = stronger binding
Target sequence (chain): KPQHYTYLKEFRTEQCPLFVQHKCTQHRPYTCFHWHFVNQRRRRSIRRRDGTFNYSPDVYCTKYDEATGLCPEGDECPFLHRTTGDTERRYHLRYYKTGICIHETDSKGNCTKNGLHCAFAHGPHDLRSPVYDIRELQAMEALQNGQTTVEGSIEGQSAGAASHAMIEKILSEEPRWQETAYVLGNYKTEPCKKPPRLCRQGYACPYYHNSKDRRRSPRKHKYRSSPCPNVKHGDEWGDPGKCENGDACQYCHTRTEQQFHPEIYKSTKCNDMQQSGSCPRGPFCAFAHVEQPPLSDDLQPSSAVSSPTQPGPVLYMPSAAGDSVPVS
Sequence | bound/input enrichment [ratio]
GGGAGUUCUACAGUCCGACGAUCGAGUCGAUUAUGGAAACAACAAUUCGUUAUCUUGCAGCCUCAGUGUUCACUUGCUUGGCGAUAGCAUAUUGGGAUUUUAGGUUCUGGAAGGAGAACUGACGAUGAUGCUGCCGCUGCUGCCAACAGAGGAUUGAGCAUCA | 0.448
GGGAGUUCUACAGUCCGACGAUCAACUUCGUGCAUCGGUUUCCCUUUGUAGCUGUUUCAAUUGGCUUCCUUGUGAAUAAAAAGAUAGAAUUUGGAGUUGUGUACAGCUGUGUGGAAGAUAAGAUGUACACCGGCAGGAAAGGGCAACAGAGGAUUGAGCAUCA | 1.34
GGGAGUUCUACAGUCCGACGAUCCAGCCUCAGAGCCCAGACUUCCUGGAUAUCACCAACCCUAAAGCGGUAUUAGAAAAUGCAUUGAGAAACUUUGCCUGUCUGACGACUGGAGAUGUGAUUGCUAUCAACUACAAUGAGAAGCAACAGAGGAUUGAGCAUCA | 0.501
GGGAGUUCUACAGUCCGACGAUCAAAGAGAAACUAAAGCAACUAAUAGAGAAGAGGAUUGGCAAAGAGAAUUUCAUAGAGGAAACUAGGAUUUAUUAGCAACAUGAGUUAUAUUCCAGAGCGUCUCAGAAACCCCAGCCAAACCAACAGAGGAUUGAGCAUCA | 8
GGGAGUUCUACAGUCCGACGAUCUGACAAGGGCACUGCAGAGCCAUGCCUUUCUUGGACAUACAGAAAAAGCUGGGCAUCAGCCUGGACCGGCACUUUAUGUUCCUAAGCGGUGAACAGCCCUAUAAGAACGCCGCUCGGUGCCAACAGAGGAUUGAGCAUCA | 0.0818
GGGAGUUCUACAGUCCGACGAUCGAUCAUGAACCACCAUCAGAAAUGAAGAUGAGAUUACCCAGACGAGCCAAAACAGCUAGCACUAGAAAAAGUAAACUUAACCUUGCAGAGUUCCUUAAUGAAGAUACUAAGUUAGGAAGCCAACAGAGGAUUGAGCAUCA | 3.46
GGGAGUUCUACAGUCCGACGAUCCUGAAAAACACAGAUAUCAAAGUUGUUGAUUUUGGAAGUGCAACGUAUGAUGAUGAACAUCACAGUACUUUGGUGUCUACCCGGCACUACAGGGCUCCCGAGGUCAUUUUGGCUUUAGGUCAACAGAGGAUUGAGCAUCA | 0.329
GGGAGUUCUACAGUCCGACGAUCCUGUGACUGAUGGCAGCUACCUGAGUGGCAGCUGAAGUUGACUCCCUCCCCUUCCCUGAACCCCCCCCCACUGCCCCCCCAUCCCCCAGUGUCGGCUGAGAUGUUGCCUCUGCACGGUUCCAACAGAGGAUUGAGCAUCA | 1.32
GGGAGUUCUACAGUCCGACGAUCAACAGAUUGUCUUUAAGCAUUCCAAGCGAGAAUGCUGAAAUAGUCAUUGUUGCCCAUGUGCCUUCUGACUGAGCUUUAAUGCUGUUCCAUGUUACAUCUUUCCUUCAUUGCAUAUUUGUUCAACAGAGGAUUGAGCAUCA | 0.277
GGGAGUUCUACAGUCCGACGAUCACCUCCCAGGCCUGGGACACCCCACCCAAGAAAGAAAGAAAGUUUUUGGCGUUUCUUUUCCUUCCCCAUACAAAGUGAUUACAGUUUCCCCCGCAAGGGUCUAUCGAAGGGCUUGACGGACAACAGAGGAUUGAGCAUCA | 0.402
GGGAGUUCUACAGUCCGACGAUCGGACAUCUGUCAAAUUGUUAUGUUCCUGUGAAACAAGUGAACACUCUUCAUAUACUAAUCUGCUUGUACAUUUAACUGAUAGAGAAAUGUAAAUAUGUUAAUCCAAGCAAUGUGUCACUUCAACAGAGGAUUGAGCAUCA | 0.303

Sample 3
Target: Prothrombin, mature alpha-thrombin (F2, Homo sapiens, UniProt P00734)
Method: aptamer microarray, sandwich
Molecule type: DNA with 2'F-ANA
Matrix: in vitro
Concentration: 200 nM
Setting: whole 15-mer aptamer, many near background
Added: Cy3 exosite-II aptamer, 400 nM
Direction: higher = stronger binding
Sequence: GGTTGGTGTGGTTGG
Modification | mean fluorescence intensity
2'F-ANA at 1 4 6 7 8 12 13 15 | 252 a.u.
2'F-ANA at 3 4 5 13 14 15 | 49.8 a.u.
2'F-ANA at 2 4 5 6 7 9 12 14 15 | 61.9 a.u.
2'F-ANA at 6 7 8 11 12 13 14 | 221 a.u.
2'F-ANA at 2 3 4 5 6 7 8 10 12 14 | 51.8 a.u.
2'F-ANA at 3 4 5 7 8 9 10 11 12 13 14 | 48.8 a.u.
2'F-ANA at 4 7 10 11 14 15 | 63.8 a.u.
2'F-ANA at 1 3 4 5 6 7 13 14 15 | 68.2 a.u.
2'F-ANA at 1 6 7 8 13 14 15 | 58.4 a.u.
2'F-ANA at 3 5 6 7 9 10 11 12 14 15 | 50.5 a.u.
2'F-ANA at 3 4 8 9 10 11 12 15 | 303 a.u.
2'F-ANA at 1 2 8 9 13 14 15 | 54.7 a.u.
2'F-ANA at 1 2 4 5 11 13 14 15 | 46.1 a.u.
2'F-ANA at 1 3 4 5 6 8 9 10 11 | 48.5 a.u.
2'F-ANA at 1 3 4 6 8 12 | 488 a.u.
2'F-ANA at 1 4 6 8 9 10 11 14 15 | 45.3 a.u.
2'F-ANA at 5 10 11 12 13 14 15 | 47.4 a.u.
2'F-ANA at 1 4 5 9 12 13 | 65.4 a.u.
2'F-ANA at 2 3 6 7 8 9 10 11 14 15 | 215 a.u.
2'F-ANA at 1 3 4 5 6 10 11 12 13 14 15 | 60.4 a.u.
2'F-ANA at 1 2 3 4 9 10 13 14 15 | 52.3 a.u.
2'F-ANA at 2 3 4 5 7 8 13 15 | 95.1 a.u.
2'F-ANA at 1 2 3 4 5 6 9 10 11 15 | 52.8 a.u.
2'F-ANA at 1 7 8 11 14 15 | 64 a.u.
2'F-ANA at 1 3 6 7 8 9 10 11 12 13 14 | 64.2 a.u.

Sample 4
Target: Ras GTPase-activating protein-binding protein 1, full length (G3BP1, Homo sapiens, UniProt Q13283)
Sequence of UniProt Q13283 (whole entry, looked up): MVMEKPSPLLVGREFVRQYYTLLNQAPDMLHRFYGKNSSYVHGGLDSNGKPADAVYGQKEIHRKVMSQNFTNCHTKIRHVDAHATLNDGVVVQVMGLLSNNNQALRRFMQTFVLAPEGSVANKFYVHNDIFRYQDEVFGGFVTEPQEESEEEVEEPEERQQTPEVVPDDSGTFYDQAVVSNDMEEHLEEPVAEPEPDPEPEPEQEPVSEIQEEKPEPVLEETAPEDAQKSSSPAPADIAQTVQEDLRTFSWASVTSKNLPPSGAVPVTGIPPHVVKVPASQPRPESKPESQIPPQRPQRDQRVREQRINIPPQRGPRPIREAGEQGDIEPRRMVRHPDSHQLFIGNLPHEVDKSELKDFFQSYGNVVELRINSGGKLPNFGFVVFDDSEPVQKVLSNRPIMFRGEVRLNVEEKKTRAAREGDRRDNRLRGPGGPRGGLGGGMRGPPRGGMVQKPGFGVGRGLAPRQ
Method: RNA Bind-n-Seq
Molecule type: RNA
Matrix: in vitro
Concentration: 200 nM
Setting: whole 134-nt RNA, ends assumed
Added: 150 mM KCl
Reference: input library
Direction: higher = stronger binding
Sequence | log2 enrichment
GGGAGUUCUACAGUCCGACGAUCUGGGAGGUGGAUUUUGUUUAUUUUUCUAGCUCAUUUCCAGGGGUGGGAAUUUUUUUUUAAUAUGUGUCAUGAAUAAAGUUGUUUUUGAAAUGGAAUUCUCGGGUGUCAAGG | 0.186
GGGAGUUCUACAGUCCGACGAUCAAGUCCUGUGCUACACAUCGUAUGUACCGAAUCGGGUUUUUGGGAGGGUUUUUGGGAAAGUAUUAUGUUACGCCGUUCGGAUCUGCACUUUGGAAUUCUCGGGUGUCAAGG | -0.173
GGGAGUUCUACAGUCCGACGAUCUAGAUAUCCAUAGAAAAGAGAACUCUGGAGCUGCAGAGAAGCCUGUCACCAUCCAUGCCACCCCAGAGGGGACUUCUGAAGCAUGCCGCAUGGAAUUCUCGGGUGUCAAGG | -0.524
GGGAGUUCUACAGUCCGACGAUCCCUCAAGUCCUGUGCUACACAUCGUAUGUACCGAAUCGGGUGGGUGGUGGGGAAAGUAUUAUGUUACGCCGUUCGGAUCUGCACUUCCAGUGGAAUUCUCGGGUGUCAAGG | 1.06
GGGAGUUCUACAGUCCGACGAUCGCAGGAAGUAAAAACAAAUGGAAAUGCUUCGGAUAGUGGCAGGGGUGGGGGUUGCUAAGGAAAGCGUGGGAUGGGAGUGGGUAAAGAGUUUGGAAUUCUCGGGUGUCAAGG | 1.02
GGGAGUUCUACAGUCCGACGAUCUGGGAGGUGGAUUUUGUUUAUUCUUUUAGCUCAUUUCCAGGGGUGGGAAUUUUUUUUUAAUAUGUGUCAUGAAUAAAGUUGUUUUUGAAAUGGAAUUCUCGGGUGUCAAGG | 0.0815
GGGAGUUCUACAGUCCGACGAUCAAGUCCUGUGCUACACAUCGUAUGUACCGAAUCGGGCCCCGGGGCCCCGGGCCCCGGAAAGUAUUAUGUUACGCCGUUCGGAUCUGCACUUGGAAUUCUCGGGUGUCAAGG | 0.374
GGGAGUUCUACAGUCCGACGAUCUAACUUUAGAGGAGGAUCUGAUGGAUAUGGCAGUGGACGUGGAUUUGGGGAUGGCUAUAAUGGGUAUGGAUGAGGACCUGGAGGUGGCAAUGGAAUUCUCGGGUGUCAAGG | 0.333
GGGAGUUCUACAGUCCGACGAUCAAGUCCUGUGCUACACAUCGUAUGUACCGAAUCGGGGAAAAGGAAAAGGAAAAGGGGAAAGUAUUAUGUUACGCCGUUCGGAUCUGCACUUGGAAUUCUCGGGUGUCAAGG | -0.527
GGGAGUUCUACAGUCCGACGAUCAGUCCUGUGCUACACAUCGUAUGUACCGAAUCGGGUUUUUUUGGGAAAAAGGGUGGGAAAGUAUUAUGUUACGCCGUUCGGAUCUGCACUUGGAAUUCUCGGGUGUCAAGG | 0.013
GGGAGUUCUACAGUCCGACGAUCCUCAAGUCCUGUGCUACACAUCGUAUGUACCGAAUCGGCCGGCCGGGGCCGGGGAAAGUAUUAUGUUACGCCGUUCGGAUCUGCACUUCCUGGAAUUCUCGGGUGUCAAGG | -0.497
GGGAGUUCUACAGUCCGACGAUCAGUCCUGUGCUACACAUCGUAUGUACCGAAUCGGGUUUUUGGGUUUGGGUUUUUGGGAAAGUAUUAUGUUACGCCGUUCGGAUCUGCACUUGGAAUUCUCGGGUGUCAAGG | -0.34
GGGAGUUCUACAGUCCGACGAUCUCAAGUCCUGUGCUACACAUCGUAUGUACCGAAUCGGAAAAAGGUUUUUGGAGGAAAGUAUUAUGUUACGCCGUUCGGAUCUGCACUUCCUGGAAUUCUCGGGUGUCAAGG | -1.02
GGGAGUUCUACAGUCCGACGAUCUGGGAGGUGGAUUUUGUUUAUUUUUUUAGCUCAUUUCCAGGGGUCGGAAUUUUUUUUUAAUAUGUGUCAUGAAUAAAGUUGUUUUUGAAAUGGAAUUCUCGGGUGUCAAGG | 0.00631

Excerpt of the above (sample 1):
Sequence | E-score
CTGTGTTC | -0.145
AGCCCAGG | -0.172
CGACCGAC | 0.127
ACTTGTAA | -0.0457
AAGGACAT | 0.0331
CCGTTCAC | 0.141
TAGACCTA | -0.0342
GCAGCCCA | -0.0793
